Assay results from different studies.
Numbered parts are unrelated; each lists some results of a single study. Changes are numbered by the printed parent chain.

Sample 1 — method: universal PBM; molecule type: double-stranded DNA, one strand shown; sample: in vitro; concentration: 600 nM; direction: higher = stronger binding
Target: Sal-like protein 4, full length isoform A (SALL4, Homo sapiens, UniProt Q9UJQ4, residues 1-1053)
UniProt Q9UJQ4, sequence (whole entry, looked up): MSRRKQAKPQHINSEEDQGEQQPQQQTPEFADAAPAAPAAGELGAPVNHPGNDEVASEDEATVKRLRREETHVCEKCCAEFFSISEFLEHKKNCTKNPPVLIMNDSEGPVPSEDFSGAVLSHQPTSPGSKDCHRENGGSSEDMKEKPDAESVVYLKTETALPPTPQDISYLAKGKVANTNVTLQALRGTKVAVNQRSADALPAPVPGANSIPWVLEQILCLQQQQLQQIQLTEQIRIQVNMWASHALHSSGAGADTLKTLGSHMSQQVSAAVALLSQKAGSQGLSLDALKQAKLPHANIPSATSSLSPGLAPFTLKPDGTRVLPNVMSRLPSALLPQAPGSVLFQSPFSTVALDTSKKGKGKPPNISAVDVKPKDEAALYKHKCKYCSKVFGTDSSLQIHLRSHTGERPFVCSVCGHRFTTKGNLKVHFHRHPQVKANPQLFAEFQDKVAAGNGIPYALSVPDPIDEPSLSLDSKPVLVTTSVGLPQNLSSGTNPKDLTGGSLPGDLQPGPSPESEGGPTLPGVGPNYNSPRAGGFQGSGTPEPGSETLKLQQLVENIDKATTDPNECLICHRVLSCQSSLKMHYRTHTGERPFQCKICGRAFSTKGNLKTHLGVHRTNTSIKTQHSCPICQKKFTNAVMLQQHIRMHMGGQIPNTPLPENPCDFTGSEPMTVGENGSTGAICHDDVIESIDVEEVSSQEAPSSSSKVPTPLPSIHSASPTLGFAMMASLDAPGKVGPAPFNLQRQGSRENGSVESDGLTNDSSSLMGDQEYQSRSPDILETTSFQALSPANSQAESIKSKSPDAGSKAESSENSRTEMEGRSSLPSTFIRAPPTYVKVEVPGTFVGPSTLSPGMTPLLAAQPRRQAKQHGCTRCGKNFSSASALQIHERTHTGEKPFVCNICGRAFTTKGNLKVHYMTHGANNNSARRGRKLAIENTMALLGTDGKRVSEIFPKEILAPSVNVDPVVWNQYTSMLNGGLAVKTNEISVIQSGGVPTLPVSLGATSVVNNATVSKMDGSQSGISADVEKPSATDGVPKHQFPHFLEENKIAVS
Notes: 8-mer, flanks averaged, mean of replicates
With `CAATGCGA` the E-score was -0.00564.
With `CCAACTCG` the E-score was -0.148.
With `CGCTCTCA` the E-score was -0.283.
The E-score of `CTGTGAAG` is reported as -0.0266.
`AACCTATA` has an E-score of 0.335.
With `CGTTTTCA` the E-score was -0.0299.
With `GGCGGATA` the E-score was -0.134.
For `AGTAAATA`, the E-score was 0.368.
`CATCCACA` has an E-score of 0.0102.
The E-score of `CGACGGTA` is reported as -0.127.
The E-score of `GCGCAGCC` is reported as -0.398.
For `GGAGACGA`, the E-score was -0.0556.
For `CTATGCGC`, the E-score was -0.0436.
The E-score of `AATGGTGA` is reported as 0.0307.
For `CCGAAAAA`, the E-score was 0.184.
`CGGAAGGA` gave an E-score of -0.163.
With `CTTAGTGC` the E-score was -0.103.
`AAGAGCGC` gave an E-score of -0.16.
`AATGGGGC` has an E-score of -0.258.
`AGTGTAGA` has an E-score of -0.00462.
The E-score of `AAACGGGT` is reported as -0.0495.

Sample 2 — method: aptamer microarray, sandwich; molecule type: DNA with 2'F-ANA; sample: in vitro; concentration: 200 nM; with: Cy3 exosite-II aptamer, 400 nM; direction: higher = stronger binding; oligonucleotide: GGTTGGTGTGGTTGG
Target: Prothrombin, mature alpha-thrombin (F2, Homo sapiens, UniProt P00734)
Notes: whole 15-mer aptamer, many near background
Under “mean fluorescence intensity”, `2'F-ANA at 1 2 5 11 12` is recorded as 87.3 a.u.
`2'F-ANA at 2 4 7 12 14 15`: “mean fluorescence intensity” 183 a.u.
Under “mean fluorescence intensity”, `2'F-ANA at 6 7 13` is recorded as 382 a.u.
Under “mean fluorescence intensity”, `2'F-ANA at 1 3 5 6 7 12 14 15` is recorded as 241 a.u.
`2'F-ANA at 5 6 7 12`: “mean fluorescence intensity” 135 a.u.
Under “mean fluorescence intensity”, `2'F-ANA at 1 3 4 8 11 12 13 14` is recorded as 87.1 a.u.
For `2'F-ANA at 2 3 5 7 10 12 14`, “mean fluorescence intensity” read 75.8 a.u.
Under “mean fluorescence intensity”, `2'F-ANA at 1 3 5 6 7 8 9 13 14` is recorded as 47.9 a.u.
Under “mean fluorescence intensity”, `2'F-ANA at 2 3 4 5 7 8 10 11 12 13` is recorded as 52.1 a.u.
`2'F-ANA at 1 3 4 5 6 10 14`: “mean fluorescence intensity” 49.1 a.u.
Under “mean fluorescence intensity”, `2'F-ANA at 2 5 6 7 8 9 10 11 12 13 15` is recorded as 55.9 a.u.
`2'F-ANA at 1 3 6 9 11 13 15`: “mean fluorescence intensity” 190 a.u.
Under “mean fluorescence intensity”, `2'F-ANA at 2 3 4 6 9 10 12 15` is recorded as 279 a.u.
For `2'F-ANA at 1 5 6 10 11 14`, “mean fluorescence intensity” read 48.4 a.u.
`2'F-ANA at 1 3 6 7 10 12`: “mean fluorescence intensity” 111 a.u.
Under “mean fluorescence intensity”, `2'F-ANA at 2 3 4 5 6 7 9 12 15` is recorded as 166 a.u.
For `2'F-ANA at 4 5 9 11 12 15`, “mean fluorescence intensity” read 91.8 a.u.
`2'F-ANA at 1 2 4 6 10 11 12 14 15`: “mean fluorescence intensity” 49 a.u.
`2'F-ANA at 1 4 9 10 11 14` — result for “mean fluorescence intensity”: 106 a.u.
For `2'F-ANA at 3 4 5 6 7 9 10 13 14 15`, “mean fluorescence intensity” read 309 a.u.
`2'F-ANA at 1 2 4 5 8 13 14` — result for “mean fluorescence intensity”: 45.9 a.u.
Under “mean fluorescence intensity”, `2'F-ANA at 1 4 5 6 7 10 11 14` is recorded as 48.5 a.u.
Under “mean fluorescence intensity”, `2'F-ANA at 1 5 6 7 8 10 11 13` is recorded as 49.4 a.u.
For `2'F-ANA at 2 3 4 5 8 10 11 13 14`, “mean fluorescence intensity” read 49.9 a.u.
`2'F-ANA at 2 3 4 7 10 13` — result for “mean fluorescence intensity”: 248 a.u.

Sample 3 — method: protein binding microarray; molecule type: double-stranded DNA, one strand shown; sample: in vitro; concentration: not given; baseline: not given; direction: higher = stronger binding
Target: Histone acetyltransferase KAT6A, both winged helices, GST fusion (KAT6A, Homo sapiens, UniProt Q92794, residues 1-181)
Notes: 8-mer, flanks averaged, mean of 2 arrays, mostly near background
Residues (chain): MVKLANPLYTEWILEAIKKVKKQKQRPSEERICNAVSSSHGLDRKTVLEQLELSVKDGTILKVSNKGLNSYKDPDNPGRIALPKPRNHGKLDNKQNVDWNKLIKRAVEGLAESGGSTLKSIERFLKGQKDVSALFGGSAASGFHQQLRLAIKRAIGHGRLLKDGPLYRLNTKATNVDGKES
The E-score of `GAGTGTGA` is reported as -0.21.
With `CCTCCACA` the E-score was -0.228.
The E-score of `CGCCAGCC` is reported as 0.138.
The E-score of `ATGCTCTA` is reported as -0.054.
For `ACACACAA`, the E-score was -0.00427.
For `AAGATAGA`, the E-score was -0.161.
The E-score of `CCAGCGAA` is reported as -0.125.
The E-score of `ACTGTTAG` is reported as -0.0381.
`ACGGCGTC` has an E-score of 0.319.
The E-score of `CCACTGTC` is reported as -0.228.
For `ACTTCTAC`, the E-score was -0.145.
For `AATCTGAC`, the E-score was -0.0823.
The E-score of `CCGTGCTA` is reported as 0.131.
The E-score of `AGGGAGAC` is reported as -0.0857.
The E-score of `ATTGTCAC` is reported as -0.0238.
`GAACGCTA` gave an E-score of -0.0611.
The E-score of `ATTAGCTC` is reported as -0.159.
`AAGATCAT` has an E-score of 0.000955.
The E-score of `CTACTGCC` is reported as 0.00432.
For `ACAATTAA`, the E-score was -0.00837.
With `AACTTGTA` the E-score was 0.0319.
`ACTATGCG` gave an E-score of 0.239.
`ACATAACT` has an E-score of -0.0831.

Sample 4 — method: RNA Bind-n-Seq; molecule type: RNA; sample: in vitro; concentration: 365 nM; baseline: no-protein control; direction: higher = stronger binding
Target: RNA binding protein fox-1 homolog 2, RRM domain, GST-SBP tag (RBFOX2, Homo sapiens, UniProt O43251-10, residues 100-194)
Notes: natural RNA segment, single round, ends assumed
Shared flanks, not repeated: GGGAGUUCUACAGUCCGACGAUC … UGGAAUUCUCGGGUGCCAA
Residues (chain): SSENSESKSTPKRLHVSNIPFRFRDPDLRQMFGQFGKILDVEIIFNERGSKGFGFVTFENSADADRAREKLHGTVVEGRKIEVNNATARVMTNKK
Under “RBNS enrichment (R)”, `CCAGGCUCUAAAUAAUAGCCUCAGGUCAUCAGGGGGACAGACUGAGUGUCUGUGAUCACUAACAGGGAGUGGGCCUUGAGUCCACUCCAGAACUGUGGUGGGAGACCAAU` is recorded as 0.383.
For `GCCGUGUCCUGAGGAGCACCUGGCCUUCCGCGUGGUCAGCGGGGCCGCCAACGUCAUUGGGCCCAAGAUCUGCCUCGAGGACAAGAGGCUGAUGAGCAGCGUCAAGGACA`, “RBNS enrichment (R)” read 0.609.
Under “RBNS enrichment (R)”, `UGUUUCUAUUAAAACAGACUAUUAUAAAGCUUUAAGUUGUCAACUUUGUUCUAAAUAUCAACUAGCGCAAGUGAAUACUGAAGAUUUCUUAGUCAGUUUUUAGGGGAUUU` is recorded as 0.395.
`CUCAUUUAGCUCUGUAGCUUUCGGCUCAAUUAAUGUACUUCCUUAUAGUGAAUGAGAAGUGGUAGUCAUUUGUAAGGAUAGCACACAUUGAAUUUGGAAUUUAUUUCUUC`: “RBNS enrichment (R)” 1.03.
Under “RBNS enrichment (R)”, `CCCGAGCCUCAAGGCAAGUCCAGGACUCAGACCGGGGAGGCCCGGGCCAGCAGCUCCCAGUGUGACCUGACAAAAACACGUAGGGGCAGGGACGGUCCCCACCCCCAGGG` is recorded as 0.234.
`ACCUUGGUAUUCCUUCUCAUUCAGUCCCCAGCACAUCCGGCUACCCCUAGCUCUCUCCACAUUCAUUCCUCAAGUCUCUCAUUUACAUGGUUUGACUUUUUAAUUCUAGU` — result for “RBNS enrichment (R)”: 0.89.
`CCUUUGCAGCUAGGGAAAGAGAAGAACACUAAGGAGAUGGAGAACUAAGGUCAGAGUAGCAGUCUCCAGUCUUACAUUUUGGUCUCUUUCCUCCUAUACUUCCUUGUUGC`: “RBNS enrichment (R)” 0.583.
For `GGAAGCUUGUCUGCCCCUCACCAGAGGUGGCCUCUGCACAUGGCACACCAGCCGGGGCUGUACCGCACUCGUGGUGGCUUGUUGUCCUCUCGACUCCUGUGGCAUGGUGC`, “RBNS enrichment (R)” read 0.684.
`GCCCCACGCUUUUCUCUCUUCCUUCCCCUCUCAUUCUCCCUCUAAUGUGUGGUGCUUUGGUGAGCAAACCCUCAGCAGUCCUGACCUUCGGGUGACCAGGUGCUUGUGAC` — result for “RBNS enrichment (R)”: 1.5.
`GCUCAGAAGGCCAUAUUAUAGAAUGUCAUUUUUAAAAAAUAAAAUAUAAAGCAUACUUUCGAAAUACAAAGGACACUCAUUACAACCCCCAAACUCAGAUCCAGGUAUGA` — result for “RBNS enrichment (R)”: 0.529.
For `AAACGAGGACACGACGGCCAAGGUGGCAGUUUGUCCCACGGGAGGACAGUCGUUUCUUUUCCAGCCUCCUGGCCUUCGGACUCUGAAUCUGGGCAGGAAGAGUCCUCAGU`, “RBNS enrichment (R)” read 0.297.
`GUCAGGCAGGGAUGUUUUUAAAGAAAUGAAUUUGAUCAUGUGGAAUCUGUUAGCUCUUAAGGCUCUCCUCGAAUAUGGCAGCAUUUGGCCGCCACUCCCUACGCCCACCA`: “RBNS enrichment (R)” 0.682.

Sample 5 — target: CCNE2, cyclin fold, Cln2 fusion (human); method: yeast growth competition, sequencing; sample: yeast; notes: strong parent motif; baseline: not given; direction: higher = stronger binding
Parent: CCP110 docking peptide (human); EKVKRRLDLDIDG
`G13A`: “normalised enrichment score” 1.59.
For `D10A`, “normalised enrichment score” read 1.4.
`D12A` — result for “normalised enrichment score”: 1.76.
Under “normalised enrichment score”, `R5K` is recorded as 0.493.
`R5A L7A` — result for “normalised enrichment score”: 0.245.
Under “normalised enrichment score”, `K4A` is recorded as -0.363.
For `K2A`, “normalised enrichment score” read 1.19.
For `L9F`, “normalised enrichment score” read 5.77.
Under “normalised enrichment score”, `I11A` is recorded as 0.87.
For `L7A`, “normalised enrichment score” read -0.606.

Some of these lines once more (sample 3):
The E-score of `ATGCTCTA` is reported as -0.054.
With `CCTCCACA` the E-score was -0.228.
The E-score of `CTACTGCC` is reported as 0.00432.
`GAACGCTA` gave an E-score of -0.0611.
For `ACACACAA`, the E-score was -0.00427.
